Measurements gathered from unrelated publications.
Each line is one published result; not all experiments were run side by side. Values joined by “and” are separate records of one study, mostly repeats; a detail may differ. ± marks the error that the study gave.
TOP2B: DNA topoisomerase 2-beta (TOP2B, Homo sapiens, UniProt Q02880)
ADRA2C: Alpha-2C adrenergic receptor (ADRA2C, Homo sapiens, UniProt P18825)
UCHL1: Ubiquitin carboxyl-terminal hydrolase isozyme L1 (UCHL1, Homo sapiens, UniProt P09936)
T1: G-quadruplex DNA, intermolecular, 6-nt strands; TTAGGG
T2: RNA aptamer del50, 5'-triphosphate, 2',3'-cyclic phosphate; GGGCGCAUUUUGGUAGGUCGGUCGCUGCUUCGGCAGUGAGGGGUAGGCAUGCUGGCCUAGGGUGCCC

CNC(=O)[C@H](CNC(=O)CCn1c(=O)[nH]c(=O)c2ccccc21)NC(=O)c1cnc2ccccc2c1 — ligand efficiency (TNKS (Homo sapiens, UniProt O95271); enzyme activity, inhibitor): 0.46
O=c1nc(SCc2cc(F)cc(C(F)(F)F)c2)nc(SCc2ccc3nc(Cl)ccc3c2)[nH]1 — decatenated DNA (TOP2B; decatenation; 15.6 µM, replicate 1): 79.3%
Nc1nc2c(ncn2[C@@H]2O[C@H](COP(=O)(O)O)[C@@H](O)[C@H]2O)c(=O)[nH]1 — reaction rate (GUK1 (Homo sapiens, UniProt Q16774, R148A); enzyme activity, NADH-coupled; 15.62 µM): -0.048 s⁻¹ and 0.91 s⁻¹ and 0.244 s⁻¹
Cc1cc(Oc2ncccc2CN2CCN(CCc3ccccc3)CC2)ccc1-c1c(C)c(=O)[nH]c(=O)n1C — selectivity ratio (ADRA2C; binding, radioligand binding; together with: [3H]rauwolscine; relative to: Ki alpha2A over Ki alpha2C): 17
Nc1ncnc2c1ncn2[C@@H]1O[C@H](COP(=O)(O)CP(=O)(O)OP(=O)(O)O)[C@@H](O)[C@H]1O — specific binding (P2X purinoceptor 1 (P2RX1, Homo sapiens, UniProt P51575, K136W); saturation binding; HEK293; 103 nM): 3420 CCPM and 4640 CCPM
O=c1nc(SCc2cc(F)cc(C(F)(F)F)c2)nc(SCc2ccc3sccc3c2)[nH]1 — mean decatenated DNA (TOP2B; decatenation; 125 µM): 0%
N#Cc1ccc(S(=O)(=O)n2nc(SCc3ccc(Cl)cc3)nc2N)cc1 — probe labeling increase (LYPLAL1 (Homo sapiens, UniProt Q5VWZ2); enzyme activity, activator, gel-based ABPP; purified protein; concentration not given, together with: FP-rhodamine; relative to: DMSO): 2.1 fold
CC(=O)N(C)Cc1ccc(C(=O)CCl)cc1 — labelling (UCHL1; covalent, intact protein LC-MS; 12.5 µM): 41.9%
CN1CCN(c2cc(-c3ccncc3)c(-c3ccc4ccccc4c3)nn2)CC1 — activation (PTGER1 (Homo sapiens, UniProt P34995); agonist, FLIPR; 12.5 µM): -2.4%
CC(=O)Nc1ccc(C(=O)C(C)Cl)cc1 (stereo not drawn) — labelling (UCHL1; covalent, intact protein LC-MS; 12.5 µM): 16.7%
CC[C@@H](C)[C@@H](NC(=O)[C@@H](Cc1ccc(O)cc1)NC(=O)[C@H]1CCCN1C(=O)[C@@H](CCCNC(=N)N)NC(=O)[C@H](N)Cc1c[nH]cn1)C(=O)N[C@H](C)C(=O)N[C@H](Cc1c[nH]cn1)C(=O)N[C@H](CCCNC(=N)N)C(=O)N[C@@H](C(=O)N[C@H](Cc1ccc(O)cc1)C(=O)N[C@H](CO)C(=O)N[C@H](Cc1ccccc1)C(N)=O)C(C)C — surface TFRC expression (Transferrin receptor protein 1 (Tfrc, Mus musculus, UniProt Q62351); flow cytometry; DC2.4; 24 h, pH 6, replicate 1, unit not given; relative to: 0 h): 0.922
CC[C@@H]1[C@H](F)C(=O)N[C@@H]1COc1nccc2cc(C(N)=O)c(OC)cc12 — inhibition (LRRK2 (Homo sapiens, UniProt Q5S007); ATP-site probe binding, ActivX profiling; THP-1 cell lysate; 0.2 mM, Lys2 site): 22.9%
Nc1ncnc2c1ncn2[C@@H]1O[C@H](COP(=O)(O)OP(=O)(O)OP(=O)(O)O)[C@@H](O)[C@H]1O — Hill slope (P2X purinoceptor 1 (P2RX1, Homo sapiens, UniProt P51575, R139M); ion current, agonist, two-electrode voltage clamp; Xenopus oocytes; concentration-response curve): 1.39
C=CC1=C(C)C2=Cc3c(C=C)c(C)c4[n]3[Fe]([Cl])[n]3c(c(C)c(CCC(=O)O)c3=CC3=NC(=C4)C(C)=C3CCC(=O)O)=CC1=N2 — Kd (T1, G-quadruplex DNA, intermolecular, 6-nt strands; UV-vis titration, Hill fit; KCl 100 mM, apparent, together with: hemin 2 µM): 437 nM
CN(CC(=O)Nc1ccc(Cl)c(C(F)(F)F)c1)C(=O)CCl — labelling (UCHL1; covalent, intact protein LC-MS; 12.5 µM): 23.3%
COC(=O)c1cn(C)c2ccc(-c3cccnc3)cc12 — activation (THRA (Homo sapiens, UniProt P10827); reporter gene, Gal4 hybrid reporter; 10 µM; relative to: vehicle): 0.71 fold
O=C(NC1CCC1)c1ccc2nc(-c3cccc(NS(=O)(=O)NCCN4CCCCC4)c3)cn2c1 — remaining activity (CDK13 (Homo sapiens, UniProt Q14004); enzyme activity; 10 µM): 100%
C[C@H](NCc1ccc(OCc2ccccc2F)cc1)C(N)=O — IC30 (Voltage-dependent P/Q-type calcium channel subunit alpha-1A (Homo sapiens, UniProt O00555); ion current, antagonist, automated patch clamp): 7010 nM
Cc1cc(C)cc(-c2cc(NC(=O)CCl)n(-c3ccccc3)n2)c1 — labelling (UCHL1; covalent, intact protein LC-MS; 12.5 µM): 10.2%
CC(C)(NS(=O)(=O)c1cccc(Cl)c1O)c1ccc2ccccc2c1 — remaining activity (malate dehydrogenase; enzyme activity, inhibitor; 200 µM, pH 7.0, 1% DMSO, aggregation counter-screen): 81%
C#CCCC1(CC[C@H](NC(=O)NCCCCCCNC(=O)NCCN)C(N)=O)N=N1 — normalized labeling ratio (FKBP1A (Homo sapiens, UniProt P62942); photoaffinity labeling, in-gel fluorescence, refers to: Alexa Fluor 647 click label; 10 µM, UV irradiation 365 nm; relative to: probe over FKBP12 signal, higher = more labeling): 0.221
C=CC(=O)N1CCC(COCC(=O)N2CCN(c3nc(-c4cnc(N)nc4C(F)F)nc(N4CCOC[C@@H]4C)n3)CC2)CC1 — remaining binding (SRPK1 (Homo sapiens, UniProt Q96SB4); KINOMEscan; 1 µM): 100%
Cc1cccc(N2CC(C(=O)O)CC2=O)c1 (stereo not drawn) — fold enrichment (Leucine-rich repeat serine/threonine-protein kinase 2, WD40 domain (LRRK2, Homo sapiens, UniProt Q5S007); binding, affinity selection mass spectrometry; relative to: other proteins in batch): 1.24
COC(=O)[C@H](CCSC(F)(F)F)NS(=O)(=O)c1cccc(Cl)c1O — remaining activity (malate dehydrogenase; enzyme activity, inhibitor; 200 µM, pH 7.0, 1% DMSO, aggregation counter-screen): 75%
Oc1ccccc1-c1n[nH]cc1-c1ccnc2ccccc12 — log2 fold change (Serine/threonine-protein kinase BUR1 (CRK1, Candida albicans, UniProt Q9Y7W4); kinase binding, MIB/MS competition; Candida albicans lysate; 10 µM; relative to: DMSO, negative = stronger binding): 0.08
O=C(O)c1ccc(Nc2ncc3c(n2)-c2ccc(Cl)cc2C(c2c(F)cccc2F)=NC3)cc1 — remaining activity (human IRAK4(h); kinase activity; 1 µM): 97%
C=CC(=O)N1CCC[C@@H](n2nc(-c3ccc(Oc4ccccc4)cc3)c3c(N)ncnc32)C1 — remaining activity (Tyrosine-protein kinase STYK1 (STYK1, Homo sapiens, UniProt Q6J9G0); 1 µM): 163%
CSCC[C@H](NC(C)=O)C(=O)N[C@@H](CC(=O)O)C(=O)N1CCC[C@H]1C(=O)N1CCC[C@H]1C(=O)N[C@@H](CC(C)C)C(=O)N[C@@H](Cc1c[nH]cn1)C(=O)N[C@@H](CO)C(=O)N[C@H](C(=O)N[C@@H](C)C(N)=O)[C@@H](C)OP(=O)(O)O — binding enthalpy (PLK1 (Homo sapiens, UniProt P53350); polo-box domain binding, isothermal titration calorimetry; concentration not given, 25 °C): -15.8 ± 0.11 kcal/mol
CC1CC1(C(=O)O)C(=O)NCc1ccc(Sc2ccccc2)cc1 (stereo not drawn) — remaining activity (malate dehydrogenase; enzyme activity, inhibitor; 200 µM, pH 7.0, 1% DMSO, aggregation counter-screen): 97%
Nc1ncnc2c1nc(N/N=C/c1ccc([N+](=O)[O-])cc1)n2[C@@H]1O[C@H](CO)[C@@H](O)[C@H]1O — luminescence (B4GALT1 (Homo sapiens, UniProt P15291); enzyme activity, inhibitor, UDP-Glo; 10 µM; lower means stronger inhibition): 60100 a.u.
COc1ccc(C=C(C#N)C(=O)Nc2ccc(C)cc2)cc1O — labelling (UCHL1; covalent, intact protein LC-MS; 12.5 µM): 9.48%
Cc1cc2nc3c(=O)[nH]c(=O)nc-3n(C[C@H](O)[C@H](O)[C@H](O)COP(=O)(O)OP(=O)(O)OC[C@H]3O[C@@H](n4cnc5c(N)ncnc54)[C@H](O)[C@@H]3O)c2cc1C — kcat (Acyl-coenzyme A oxidase acox-1.1 (acox-1.1, Caenorhabditis elegans, UniProt O62140); enzyme activity; holo enzyme, wild type, together with: cpd in buffers before SEC, no incubation): 1.73 s⁻¹ and 1.49 s⁻¹ and 1.63 s⁻¹
O=C(O)C1=CCNCC1 — current density (BEST1 (Homo sapiens, UniProt O76090); whole-cell patch clamp; HEK293 transiently expressing channel; concentration not given, membrane potential -80 mV): -44.8 pA/pF and -20.2 pA/pF and -22 pA/pF and -106 pA/pF and -16.1 pA/pF and -54.3 pA/pF
Nc1nc2c(ncn2[C@@H]2O[C@H](COP(=O)(O)OP(=O)(O)OP(=O)(O)O)[C@@H](O)[C@H]2O)c(=O)[nH]1 — Kd (T2, RNA aptamer del50, 5'-triphosphate, 2',3'-cyclic phosphate; ITC): 10.5 nM
C[C@H]1O[C@H](O[C@H]2[C@H](O)[C@@H](O)[C@@H](O[C@H]3[C@H](O)[C@@H](O)C(O)O[C@@H]3CO)O[C@@H]2CO)[C@H](O)[C@@H](O)[C@@H]1N[C@H]1C=C(CO)[C@@H](O)[C@H](O)[C@H]1O (stereo partly drawn) — abnormal band quantity (α-amylase isoenzymes; native PAGE densitometry; 1 mg/mL; relative to: untreated enzyme (band absent)): 9.94 a.u.
NC(=O)C[C@H](N)C(=O)O — Km (L-asparaginase Trichosporon asahii; substrate, Nesslerization; pH 7.5, 35 °C): 16.6 µM
CCN(c1ccc(NC(=O)CCl)cc1)C(C)C.Cl — labelling (UCHL1; covalent, intact protein LC-MS; 12.5 µM): 11.7%
CCCCCC/C=C\CCCCCCCCCC(=O)O — Km (uncharacterized protein (Marinitoga piezophila, UniProt H2J7C1); substrate, GC-FID; pH 6.0, 20 °C, 5% ethanol, 50 mM NaCl): 5 ± 0.8 µM
CC(Cl)C(=O)N1CCN(C(C)c2cccc(C#N)c2)CC1 (stereo not drawn) — labelling (UCHL1; covalent, intact protein LC-MS; 12.5 µM): 12.6%
Cc1cc(Oc2ncccc2CN2CCN(c3ccccc3O)CC2)ccc1-c1c(C)c(=O)[nH]c(=O)n1C — selectivity ratio (ADRA2C; binding, radioligand binding; together with: [3H]rauwolscine; relative to: Ki alpha2A over Ki alpha2C): 5
Cc1nc(CSc2nc(SCc3ccc(C(C)C)cc3)nc(=O)[nH]2)cs1 — decatenated DNA (TOP2B; decatenation; 15.6 µM, replicate 2): 100%
O=C(O)c1cccc(C(N(Cc2ccccc2)C(=O)c2cccs2)P(=O)(O)O)n1 (stereo not drawn) — dissociative half-life (Beta-lactamase L1 (Stenotrophomonas maltophilia, UniProt P52700); binding, inhibitor, nitrocefin progress curves): 17 ± 2.8 min

For quick reference, copied from above:
C=CC1=C(C)C2=Cc3c(C=C)c(C)c4[n]3[Fe]([Cl])[n]3c(c(C)c(CCC(=O)O)c3=CC3=NC(=C4)C(C)=C3CCC(=O)O)=CC1=N2 — Kd (T1, G-quadruplex DNA, intermolecular, 6-nt strands; UV-vis titration, Hill fit; KCl 100 mM, apparent, together with: hemin 2 µM): 437 nM
CN(CC(=O)Nc1ccc(Cl)c(C(F)(F)F)c1)C(=O)CCl — labelling (UCHL1; covalent, intact protein LC-MS; 12.5 µM): 23.3%
